Published values pooled from the literature.
A part holds a random share of what one study measured. Substitutions count along the parent as printed.
Chain of UniProt Q9ZPY6 (whole entry, looked up): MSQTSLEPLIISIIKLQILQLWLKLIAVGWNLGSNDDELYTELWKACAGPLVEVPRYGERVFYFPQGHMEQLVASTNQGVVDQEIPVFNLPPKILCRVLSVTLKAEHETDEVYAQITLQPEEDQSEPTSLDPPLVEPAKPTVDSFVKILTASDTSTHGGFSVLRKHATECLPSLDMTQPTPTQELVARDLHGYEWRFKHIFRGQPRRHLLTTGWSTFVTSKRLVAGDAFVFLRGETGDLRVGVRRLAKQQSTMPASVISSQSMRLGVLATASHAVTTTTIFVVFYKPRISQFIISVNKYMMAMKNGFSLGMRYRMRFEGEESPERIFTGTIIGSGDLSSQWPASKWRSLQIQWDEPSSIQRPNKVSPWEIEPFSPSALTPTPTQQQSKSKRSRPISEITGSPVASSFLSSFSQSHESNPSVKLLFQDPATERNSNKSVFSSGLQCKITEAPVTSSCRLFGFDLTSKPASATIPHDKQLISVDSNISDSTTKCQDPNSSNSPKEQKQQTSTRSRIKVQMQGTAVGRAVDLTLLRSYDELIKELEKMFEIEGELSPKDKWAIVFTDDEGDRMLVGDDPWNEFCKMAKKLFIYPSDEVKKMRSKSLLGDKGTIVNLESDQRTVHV
Chain of UniProt P93024 (whole entry, looked up): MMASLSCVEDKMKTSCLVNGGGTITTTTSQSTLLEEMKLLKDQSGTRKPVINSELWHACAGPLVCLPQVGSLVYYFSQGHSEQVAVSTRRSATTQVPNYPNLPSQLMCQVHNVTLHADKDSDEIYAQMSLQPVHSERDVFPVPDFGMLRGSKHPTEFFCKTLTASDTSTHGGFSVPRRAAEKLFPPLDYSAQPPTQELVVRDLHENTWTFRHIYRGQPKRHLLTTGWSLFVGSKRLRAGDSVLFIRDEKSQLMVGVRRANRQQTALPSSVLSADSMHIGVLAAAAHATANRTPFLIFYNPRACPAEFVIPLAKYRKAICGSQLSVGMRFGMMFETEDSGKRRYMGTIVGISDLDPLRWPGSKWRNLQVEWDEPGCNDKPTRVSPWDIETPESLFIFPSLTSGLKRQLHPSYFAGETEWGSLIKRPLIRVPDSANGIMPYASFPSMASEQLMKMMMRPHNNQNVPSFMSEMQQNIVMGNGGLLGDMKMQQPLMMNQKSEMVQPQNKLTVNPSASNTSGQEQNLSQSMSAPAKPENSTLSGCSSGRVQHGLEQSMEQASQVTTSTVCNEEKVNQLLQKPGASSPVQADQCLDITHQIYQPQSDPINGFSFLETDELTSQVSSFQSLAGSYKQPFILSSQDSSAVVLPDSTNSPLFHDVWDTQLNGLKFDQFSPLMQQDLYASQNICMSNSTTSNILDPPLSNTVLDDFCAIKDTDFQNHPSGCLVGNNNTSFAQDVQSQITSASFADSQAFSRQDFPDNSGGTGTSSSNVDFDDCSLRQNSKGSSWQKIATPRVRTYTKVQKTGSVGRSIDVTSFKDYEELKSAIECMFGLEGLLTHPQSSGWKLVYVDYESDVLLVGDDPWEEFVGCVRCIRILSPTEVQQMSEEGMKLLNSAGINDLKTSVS
Chain of UniProt Q9XID4 (whole entry, looked up): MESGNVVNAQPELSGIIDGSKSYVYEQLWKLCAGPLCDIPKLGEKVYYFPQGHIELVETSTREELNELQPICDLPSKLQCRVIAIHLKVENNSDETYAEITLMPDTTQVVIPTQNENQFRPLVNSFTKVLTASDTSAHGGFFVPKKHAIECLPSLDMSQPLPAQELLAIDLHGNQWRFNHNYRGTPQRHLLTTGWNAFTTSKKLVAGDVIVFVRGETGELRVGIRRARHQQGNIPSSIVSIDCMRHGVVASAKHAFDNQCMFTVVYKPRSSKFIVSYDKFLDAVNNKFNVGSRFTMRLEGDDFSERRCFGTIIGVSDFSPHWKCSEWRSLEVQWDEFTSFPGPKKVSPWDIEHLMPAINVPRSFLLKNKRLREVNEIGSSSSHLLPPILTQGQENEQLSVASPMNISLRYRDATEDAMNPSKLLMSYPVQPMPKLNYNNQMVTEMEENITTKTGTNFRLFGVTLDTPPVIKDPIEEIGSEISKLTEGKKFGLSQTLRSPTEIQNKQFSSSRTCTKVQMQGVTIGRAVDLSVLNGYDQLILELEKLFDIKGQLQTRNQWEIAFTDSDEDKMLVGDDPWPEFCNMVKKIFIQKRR
Chain of UniProt Q8RYC8 (whole entry, looked up): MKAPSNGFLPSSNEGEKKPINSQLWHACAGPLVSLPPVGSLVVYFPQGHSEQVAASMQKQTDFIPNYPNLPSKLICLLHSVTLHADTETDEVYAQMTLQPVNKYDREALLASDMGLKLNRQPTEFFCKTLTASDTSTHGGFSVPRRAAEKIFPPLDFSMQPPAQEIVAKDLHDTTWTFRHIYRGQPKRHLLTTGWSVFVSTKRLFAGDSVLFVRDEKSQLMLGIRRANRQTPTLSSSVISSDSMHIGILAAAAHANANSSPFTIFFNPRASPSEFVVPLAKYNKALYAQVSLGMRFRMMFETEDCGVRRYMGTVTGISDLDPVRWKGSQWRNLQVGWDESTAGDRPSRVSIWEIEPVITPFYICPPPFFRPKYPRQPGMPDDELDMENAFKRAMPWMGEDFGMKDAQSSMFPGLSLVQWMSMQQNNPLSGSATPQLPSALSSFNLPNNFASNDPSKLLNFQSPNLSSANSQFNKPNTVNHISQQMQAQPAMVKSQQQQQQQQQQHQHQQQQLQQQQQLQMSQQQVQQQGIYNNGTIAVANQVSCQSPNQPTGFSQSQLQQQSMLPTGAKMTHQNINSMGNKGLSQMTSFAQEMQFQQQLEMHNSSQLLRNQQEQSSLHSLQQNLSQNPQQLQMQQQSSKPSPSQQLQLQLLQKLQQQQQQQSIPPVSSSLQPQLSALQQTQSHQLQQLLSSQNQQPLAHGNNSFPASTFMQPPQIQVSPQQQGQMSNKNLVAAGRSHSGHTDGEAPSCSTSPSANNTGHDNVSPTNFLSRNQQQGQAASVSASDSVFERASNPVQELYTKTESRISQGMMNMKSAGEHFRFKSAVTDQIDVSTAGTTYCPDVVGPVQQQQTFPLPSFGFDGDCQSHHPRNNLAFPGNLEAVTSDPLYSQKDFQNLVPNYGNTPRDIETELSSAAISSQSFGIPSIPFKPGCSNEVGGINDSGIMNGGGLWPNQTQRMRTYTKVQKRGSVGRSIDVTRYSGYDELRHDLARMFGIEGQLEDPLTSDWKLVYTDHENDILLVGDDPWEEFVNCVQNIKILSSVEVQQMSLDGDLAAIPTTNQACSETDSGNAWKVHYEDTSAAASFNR
Chain of UniProt Q9ZTX8 (whole entry, looked up): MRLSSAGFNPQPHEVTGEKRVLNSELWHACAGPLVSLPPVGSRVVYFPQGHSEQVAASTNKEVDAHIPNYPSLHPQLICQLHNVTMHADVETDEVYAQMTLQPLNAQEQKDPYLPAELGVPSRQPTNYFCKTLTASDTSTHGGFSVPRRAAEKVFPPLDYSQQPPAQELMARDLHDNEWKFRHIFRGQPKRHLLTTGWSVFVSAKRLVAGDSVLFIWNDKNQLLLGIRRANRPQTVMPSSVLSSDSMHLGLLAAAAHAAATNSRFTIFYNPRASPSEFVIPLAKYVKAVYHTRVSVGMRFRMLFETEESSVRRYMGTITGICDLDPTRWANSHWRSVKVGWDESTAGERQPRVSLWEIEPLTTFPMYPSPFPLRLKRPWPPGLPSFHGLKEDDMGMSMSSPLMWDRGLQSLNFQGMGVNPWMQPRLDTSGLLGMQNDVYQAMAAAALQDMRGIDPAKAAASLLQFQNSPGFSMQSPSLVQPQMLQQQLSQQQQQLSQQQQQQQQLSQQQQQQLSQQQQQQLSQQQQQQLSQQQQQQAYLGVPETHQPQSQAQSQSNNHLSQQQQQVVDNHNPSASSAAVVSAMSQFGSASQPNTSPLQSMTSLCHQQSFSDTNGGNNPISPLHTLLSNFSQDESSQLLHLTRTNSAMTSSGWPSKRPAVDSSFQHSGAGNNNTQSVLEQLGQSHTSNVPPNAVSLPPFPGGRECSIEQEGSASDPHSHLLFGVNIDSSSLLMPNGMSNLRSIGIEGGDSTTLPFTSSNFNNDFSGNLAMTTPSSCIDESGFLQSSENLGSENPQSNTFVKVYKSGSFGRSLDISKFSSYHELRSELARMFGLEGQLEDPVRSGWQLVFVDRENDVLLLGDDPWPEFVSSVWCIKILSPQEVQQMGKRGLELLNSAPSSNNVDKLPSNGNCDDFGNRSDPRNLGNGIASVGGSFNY

Block 1 — method: DHFR PCA, deep sequencing; matrix: yeast; added: (+)-ABA 200 µM; reference: wild-type fitted maximum; direction: higher = stronger binding
Target: ABI1, truncated, D143A, DHFR fusion (Arabidopsis thaliana)
Setting: methotrexate growth selection, single substitutions
Starting sequence: PYL1, truncated, DHFR fusion (Arabidopsis thaliana); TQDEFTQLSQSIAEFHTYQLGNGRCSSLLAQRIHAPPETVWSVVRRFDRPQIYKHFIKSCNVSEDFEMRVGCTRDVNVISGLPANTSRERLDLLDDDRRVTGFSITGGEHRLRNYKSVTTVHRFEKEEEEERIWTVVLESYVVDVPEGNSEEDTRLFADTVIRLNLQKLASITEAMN
Variant | relative binding score [%]
A30T | 104
G107M | 62.5
E152R | 89.7
R90A | 76.2
G23S | 95.5
F103H | 40.1
E147Q | 93.6
C72M | 99.4
A30I | 97.5
L169D | -9.48
L166W | -0.322
R132G | 119
E38A | 94.1
I57A | 66.6
Y141E | 7.61
E130F | 95.3
G102E | 31
N85Q | 108
E109V | 95.1
W41E | 3.91
G21R | 101
S117A | 97

Block 2 — Molecule: B1 (IAA30); method: two-hybrid; setting: weak activation fusion; reference: out of 4 tests; direction: higher = firmer interaction
T1: itself; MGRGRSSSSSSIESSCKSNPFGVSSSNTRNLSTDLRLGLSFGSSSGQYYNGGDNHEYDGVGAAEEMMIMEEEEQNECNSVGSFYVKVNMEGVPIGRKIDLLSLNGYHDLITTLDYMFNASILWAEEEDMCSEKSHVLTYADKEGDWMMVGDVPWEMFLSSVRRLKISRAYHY
B1: IAA30 (Arabidopsis thaliana, UniProt Q9M1R4); chain MGRGRSSSSSSIESSCKSNPFGVSSSNTRNLSTDLRLGLSFGSSSGQYYNGGDNHEYDGVGAAEEMMIMEEEEQNECNSVGSFYVKVNMEGVPIGRKIDLLSLNGYHDLITTLDYMFNASILWAEEEDMCSEKSHVLTYADKEGDWMMVGDVPWEMFLSSVRRLKISRAYHY
partner | positive tests
ARF19 948-1086 (Arabidopsis thaliana, UniProt Q8RYC8) | 3
ARF12 500-593 (Arabidopsis thaliana, UniProt Q9XID4) | 2
ARF5 788-902 (Arabidopsis thaliana, UniProt P93024) | 2
ARF6 790-935 (Arabidopsis thaliana, UniProt Q9ZTX8) | 2
ARF11 500-622 (Arabidopsis thaliana, UniProt Q9ZPY6) | 1
T1, itself | 0

Block 3 — target: CEP164, C-terminal peptide (human); method: DHFR complementation, deep sequencing; matrix: yeast; reference: wild type; direction: higher = weaker binding
Setting: single substitutions, model-inferred values
Starting sequence: PDZK1, PDZ domain 2 (human); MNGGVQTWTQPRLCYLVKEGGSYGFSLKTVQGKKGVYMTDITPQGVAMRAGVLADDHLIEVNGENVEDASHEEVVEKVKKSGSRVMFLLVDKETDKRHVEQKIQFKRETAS; partner HNRVKVYRF
Variant | binding free energy change
Q10L | 0.353 kcal/mol
M86A | -0.196 kcal/mol
N2A | -0.0989 kcal/mol
K92R | 0.342 kcal/mol
L89P | 1.23 kcal/mol
F105R | -0.251 kcal/mol
Q104H | -0.101 kcal/mol
D55Y | 0.443 kcal/mol
V46C | 0.296 kcal/mol
M86Y | -0.0738 kcal/mol
E100G | -0.142 kcal/mol
N62K | 0.655 kcal/mol
D56W | 0.307 kcal/mol
S83L | -0.0461 kcal/mol
L89E | 1.35 kcal/mol
G51D | 1.34 kcal/mol
L89H | 0.99 kcal/mol
V5H | -0.00377 kcal/mol
A54F | 0.409 kcal/mol
Q31E | -0.322 kcal/mol
L13M | 0.000895 kcal/mol

Block 4 — target: CCNB1, cyclin fold, Cln2 fusion (human); method: yeast growth competition, sequencing; matrix: yeast; setting: weak parent motif; reference: not given; direction: higher = stronger binding
Starting sequence: CDC6 docking peptide (human); TLKGRRLVFDNQL
Variant | normalised enrichment score
D10P | -0.365
D10L | -0.118
Q12Y | 0.0708
R5I | -0.331
K3D | -0.0255
N11W | 1.18
Q12G | 1.23
R6A | 0.117
D10E | -1.03
V8N | 0.797
N11Y | 0.307
V8P | 0.11
L7H | 0.128
G4S | -1.7
F9H | 0.195
L2E | 0.372

Block 5 — method: protein-binding microarray; form: double-stranded DNA, one strand shown; matrix: in vitro; concentration: 250 nM; setting: 60-bp whole probe; added: salmon DNA 0.4 mg/ml; reference: random background probes; direction: higher = stronger binding; constant ends, left off below: GCCTAGCAC … GTCTTGATTCGCTTGACGCTGCTG
Target: Interferon regulatory factor 5, full length, phosphomimetic (IRF5, Homo sapiens, UniProt Q13568-2, residues 1-514, K96S/S451D/S453D/S456D/S462D)
Strand | log fluorescence
GACGAACTGGGGAATCGAGACGTGCTA | -0.436 z-score
CACATTGTGCAATCTTAATAAGTGCTA | 0.482 z-score
CCTGTAATCCCAGCTACTCAGTGCTAG | -0.16 z-score
TTAGGACAGGACTTTCGGTTAGTGCTA | 9.42 z-score
GACGGTTTCATTCTCCTGACGTGCTAG | 2.54 z-score
TCAACTCTTCTTTTTTTACTGTGCTAG | 0.802 z-score
TTAGATAACAGACTGGATTAGTGCTAG | -0.0146 z-score
GACGGTATCGAATTTCGGGACGTGCTA | 2.85 z-score
CTTGCCCACTTCTGTGACAGGTGCTAG | -0.666 z-score
TCAAGTTTCCATTTTCTACTGTGCTAG | 2.33 z-score
TTAGGTTTCCCTCTCCTTTAGTGCTAG | 1.04 z-score
GACGGTCTCGGTTTCTGGACGTGCTAG | 0.887 z-score
GACGGTGTCGGGACTGGGGACGTGCTA | -0.336 z-score
TTAGATTACAGTTTCGATTAGTGCTAG | 8.92 z-score
GACGATAGCGGGACTGGAGACGTGCTA | -0.0509 z-score
TTAGGACTGGCCTTTCGGTTAGTGCTA | 5.19 z-score
TCAACATTGTGCAATCTTACTGTGCTA | 0.461 z-score
TTAGGTATCCGTTTCCTTTAGTGCTAG | 1.06 z-score
GACGGTTTCCTTTTCCTCACGTGCTAG | 1.32 z-score
